Results from different studies.
Each numbered part is a random draw from the data of one study; scales do not carry over between parts.

Series 1 — technique: protein-binding microarray; form: double-stranded DNA, one strand shown; matrix: in vitro; concentration: not given; reading: higher = stronger binding
Target: Myc proto-oncogene protein, bHLH-zipper, MAX partner unstated (MYC, Homo sapiens, UniProt P01106, residues 368-449)
Sequence of UniProt P01106 (368-449, looked up): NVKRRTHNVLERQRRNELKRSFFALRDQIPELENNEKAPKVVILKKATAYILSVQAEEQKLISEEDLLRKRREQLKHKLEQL
Setting: k-mer, scored over probes, only values ≥0.25
Sequence | E-score
CACGCTCA | 0.296
CATGGTTC | 0.322
CATGGTGA | 0.346
ACATGGTC | 0.397
ACCCGCGT | 0.256
GCGTGCAA | 0.395
CCCGTCCC | 0.283
ACCGCGCA | 0.254
CCACGGCA | 0.251
ACATGGCA | 0.403
ACCTCATG | 0.459
CTCCACGA | 0.32
GCATGCCC | 0.378
CGACCTCA | 0.275
ACGTGATA | 0.415
AGAGCACG | 0.354
ACCGCACG | 0.36
AGCACATG | 0.481
GTGTCCCA | 0.277
CCCTCCCC | 0.346
ATGAGGCA | 0.328
CGCGCGCA | 0.267
CGTGCGCC | 0.374
AAACGCGT | 0.292
AAGCACAT | 0.346

Series 2 — technique: universal PBM; form: double-stranded DNA, one strand shown; matrix: in vitro; concentration: not given; reading: higher = stronger binding
Target: Sal-like protein 4, full length isoform B (SALL4, Homo sapiens, UniProt Q9UJQ4-2, residues 1-616)
Setting: 8-mer, flanks averaged, mean of replicates
Residues (chain): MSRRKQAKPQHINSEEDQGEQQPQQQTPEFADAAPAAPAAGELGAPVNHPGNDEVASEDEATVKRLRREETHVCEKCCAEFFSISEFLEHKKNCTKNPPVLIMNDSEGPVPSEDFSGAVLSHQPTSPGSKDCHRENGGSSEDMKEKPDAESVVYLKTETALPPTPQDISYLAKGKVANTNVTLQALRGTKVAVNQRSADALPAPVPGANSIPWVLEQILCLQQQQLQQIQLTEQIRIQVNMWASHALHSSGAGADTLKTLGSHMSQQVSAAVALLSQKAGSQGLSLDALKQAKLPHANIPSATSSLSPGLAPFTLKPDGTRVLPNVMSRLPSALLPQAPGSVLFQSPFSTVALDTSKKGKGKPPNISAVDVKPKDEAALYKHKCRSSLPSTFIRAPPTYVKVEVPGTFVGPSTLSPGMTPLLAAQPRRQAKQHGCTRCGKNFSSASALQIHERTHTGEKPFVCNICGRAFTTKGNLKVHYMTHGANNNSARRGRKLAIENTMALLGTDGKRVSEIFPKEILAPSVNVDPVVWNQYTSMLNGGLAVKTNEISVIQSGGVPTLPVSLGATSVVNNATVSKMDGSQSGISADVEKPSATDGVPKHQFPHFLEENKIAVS
Sequence | E-score
GAACGATC | -0.169
ATCTCACC | 0.0599
AGTAGCCC | -0.159
AAGTAGAG | 0.101
ACTGTCAG | -0.0426
ACGCTAGC | -0.173
CGCTTCAC | -0.142
CTACTTGA | -0.0205
AGCTTTTG | 0.0235
AGTTCATG | 0.0114
AGTACTCC | -0.186
GAATGCCC | -0.22
AACTAGCC | -0.0182
CCTTGTGA | 0.0134
CGAGTCAA | -0.0953
TCTCTCAA | 0.102
CAACTCGC | -0.0449
AAGTCTAC | -0.0428

Series 3 — technique: RNA Bind-n-Seq; form: RNA; matrix: in vitro; concentration: 365 nM; reference: no-protein control; reading: higher = stronger binding
Target: RNA binding protein fox-1 homolog 2, RRM domain, GST-SBP tag (RBFOX2, Homo sapiens, UniProt O43251-10, residues 100-194)
Setting: natural RNA segment, single round, ends assumed
Shared flanks, not repeated: GGGAGUUCUACAGUCCGACGAUC … UGGAAUUCUCGGGUGCCAA
Residues (chain): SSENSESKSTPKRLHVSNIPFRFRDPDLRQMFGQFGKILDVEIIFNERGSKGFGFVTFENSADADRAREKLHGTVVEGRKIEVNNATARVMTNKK
Sequence | RBNS enrichment (R)
GCCGAGCCGCCGCAGACGGAGCCCCGCUGCUGACUGGACCCUCUCUGGCCCUGUGGUUCGGUUCUCACAGUUCCAGUGAGACUGGGCAGCGUGUUUGCCUGUCCUGAGGU | 0.437
AUCUGGUCAAGUGGCGGGCCUUACUCUGGAAGGAGGCCUCAGAGGUUUCUCCACAGUCCUCUUCUGGGCAAAUUCUUGUUUCUUCACAUGCUGGACUAGCUUAAGACCAA | 0.181
AUGGCUCAGAGGUGAUUCGGGCAGCCAGGGACAGGAGCCACCCUCCCCAGGCCCAACUCUGCUAGCUUCCCAGACCACCCCCAUCGAGUGCGGAGAGAGUGGGAGUGCUC | 1.14
AGAGGUAACCCCAAGCAGGGCUGGCCCCUCUAAAGAGGACAUUUCCCAGUUUGUCCUUUCUUGUCCAUACCUACACACACCUGCAGCGGGGGUCUGGGGAACAUGUGGGC | 0.609
UGAACAGACCCCCCGACCCUCCCCCACAAGCCUUUAAUUGAGAGCCGCUCUCUGUAAGUGUUUGCUUGUGCAAAAGGGAAUAGUGCCGUGGAGGUGUGUGUGUCCAUGGC | 1.85
UCGUGAUUGCUUCCUGUGAACGCCUCCCAAGGACGAGCCCAGUGUAGUUGUGUGGCGUGAACUCUGCCCGUGUGUUCUCAAAUUCCCCAGCUUGGGAAAUAGCCCUUGGU | 0.459
CGAUAAGAGUAGUAGGCACCACAUGUAAGUCAGGGUCAAAUACUUGGAUAUUUAUCUGCAUAUGCAAAUUAAAAUAAUUAGAAACUUUCUACCUAGUACGUCAUGUUGUA | 0.483
GUCUUUUUACAAGAUGAGCUUUUACUCUCUUCCAGGAAGUAGCUUUUUUUCUAGCUGAGAAUUAAUAAUGGUCUUUCUCUUUGGAAGUCAUAUCAAAGUAUAAUUGAUGG | 0.376
AGUGCUGAAAUGAGCUUGAGGUGUUCUUCAAAGCCAGUGUCACUGUGUGGGUCACUGUGAGGUGACUGCAUGGUGCCUGGCCCUGGCACAGCUGGUGACUUCCCUUGUAG | 0.297
UUUUAAAGCAUUCUUUGAUACUGUUGCUUUUGCAAUAAAUAUGGAUAAUCUUGGUUAUAAGGGAGUUAAAACAAUGCUGUAAUAAAUAAAGUGCUUCAUGUGAUCAAAAU | 0.441
CCACCACCCGAAAUGCCACGUGGUCACUGUGCACUGCCCUGUUCAUGUGCCUCUGCGGGGCAGGGCCUUCCUGGUUUUGUUCACUGCUGUACCCAGAUGCCUACAACCAU | 0.815
GAGCUGCCUCUGCCCCUGGGCAAGGAAGCGAGGCCCUCUGGGAGGAGGGUGCUUAGCUCCAGAGCAGGAUGGGACUUCCCCAGGCAGGAAGCACUUGAUGGAGAGCUGCC | 0.276

Series 4 — technique: RNA Bind-n-Seq; form: RNA; matrix: in vitro; concentration: not given; reference: input RNA pool; reading: higher = stronger binding
Target: RING finger protein unkempt homolog, zinc fingers 1-6, GST-SBP tag (UNK, Homo sapiens, UniProt Q9C0B0, residues 30-357)
Sequence of UniProt Q9C0B0 (30-357, looked up): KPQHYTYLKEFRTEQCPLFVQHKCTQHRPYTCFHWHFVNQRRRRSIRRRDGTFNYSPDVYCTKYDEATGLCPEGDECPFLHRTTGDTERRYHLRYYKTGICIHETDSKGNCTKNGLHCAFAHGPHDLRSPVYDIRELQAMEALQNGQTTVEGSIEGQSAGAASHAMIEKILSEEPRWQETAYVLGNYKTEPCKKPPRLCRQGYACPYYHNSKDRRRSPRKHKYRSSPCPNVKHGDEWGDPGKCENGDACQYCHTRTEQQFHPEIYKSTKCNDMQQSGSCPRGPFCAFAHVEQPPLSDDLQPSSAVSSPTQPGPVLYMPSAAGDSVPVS
Setting: RNA with constant flanks, human and mouse sites, ends assumed
Shared flanks, not repeated: GGGAGUUCUACAGUCCGACGAUC … CAACAGAGGAUUGAGCAUCA
Sequence | bound/input enrichment
CCUGACAAGCUGAACAAUGGUGGAUCUGAUAGCCCAUGUGACUUGAAAUCACCUAGUGCUUUUAGUGAAAACCGGCAGGACUAUUUUGAAUAUGAGUCAACUAACCCGUUUACAGCAAAA | 0.22 ratio
GUCAUUGACAGGAAGCGUCACCAUGUCCUGCAGACAGCUCACCCCUCCCCGCUGUCGGUGCACAGAGGGUUCCUGGGAUGCAGACAUUUUUCUAAAGCCAAUGAACUGCUCCAGAAGUCU | 0.13 ratio
CAGGUGGCAGAGGAGCUGGGGCAUCGCCCACCGCUGUAGCCAGCUGCAUAGUUUAAGCCGCUUAGCACAGCAGAAUUUGGAAACACUUAAAAAAGCAAAAGGGUGUACAAUCAUAUUUAC | 0.278 ratio
CUCCCCUACGCGCUACACAAGUGGAGCUCCUUUUCCUCCACCUACCUUCCCGAGAACAUUUUAGUGGACAAACCAAAUGACCAAUCUUCAAGAUGGUCUUCAGAGAGCAACUAUCCUCCC | 1.02 ratio
GCCUUCUUCACUUUGCCCAAGACUGACUCUGGUAAUGAGGAUUUAGUCAUAAUUUGGUUAAGAGACAUGCGGCUCAUGCAGGGUGAUGAGAUCUGUCUGCGGUACAAAGGGGAUCUGGCG | 0.318 ratio
UUUCUGAAAAUCCAAAGUCAGGAAGCCAAGUGUGCGAAGGGUUAGUGACGCCUCUGGCAAUAGCUUUGGCUUGCCCUGGGCCAUACUCUGUCAGCACUGAAAGGAGGUUUAAAUACUAUG | 0.144 ratio
GCCAAUCAGGCUAUCAAUCCAAAACUGAUGCAGCUUGUGGACCACAGAGGAGGCGGCGGAGGCGGGGGUAAGGGUGGUCGUUCUCGUUACCGGACCACUUCUUCAGCCAACAAUCCCAAU | 0.14 ratio
GAUGAUGAUGAAGAAUCUGGACGAUUACGUUUUAAAACUGAAAGGAAAGAAGGAACAAUUAUUAGGCUUUCAGAUGUAACUAGAGAGAGAAGGAACAUUCCAGAAACUUUGGAACUUUCU | 0.741 ratio
CCCAAGAAACUCCAUUUGUGUGCCUUGUGUGGCAAGAACUUUUCUAAUAACUCAAACCUAAUUAGGCACCAGAGAAUACAUGCAGCAGAAAAGCUGUGUAUGGAUGUAGAGUGUGGUGAA | 0.32 ratio
AAUUCUGGAGGGCUGUGAUUUUUCCAGUAUUAAACAUGCAUGCGUUGAUCUUGCAGUUUAUUUCUCAUUGUGUAUGUAUAUAUAGCUUUUCUCUGCAGCACGAUUCCCUUUUGAUAAGGC | 0.195 ratio
AACAUGCUAGCCACUGCCAAUAAAACAGAAAAGACUGAAUUUCUGGGUUUCUUCUACAAGCACUGUAUGCAUGUUCUCACUGCUCCUUUACUAGCAAAUACAACAGAAGACAAACCUAGU | 3.84 ratio

Series 5 — technique: protein-binding microarray; form: double-stranded DNA, one strand shown; matrix: in vitro; concentration: 250 nM; setting: 60-bp whole probe; added: salmon DNA 0.4 mg/ml; reference: random background probes; reading: higher = stronger binding; shared flanks, not repeated: GCCTAGCAC … GTCTTGATTCGCTTGACGCTGCTG
Target: Interferon regulatory factor 5, full length, phosphomimetic (IRF5, Homo sapiens, UniProt Q13568-2, residues 1-514, K96S/S451D/S453D/S456D/S462D)
Sequence | log fluorescence
TTAGGTTTCGACGTTCGGTTAGTGCTA | 6.15 z-score
TTTGGTTTCGGGTTTCGGTTAGTGCTA | 11 z-score
GGGCCCTGCTGGGAAGTCAGGTGCTAG | -0.891 z-score
TCACCTTGAGGTTTTCTCACTGTGCTA | 0.194 z-score
TTAGATATCCGGTTTCGATTAGTGCTA | 7.5 z-score
GACGGTTTCGGGACTGGGGCCGTGCTA | 4.43 z-score
GACGAACTGAGAATCGAGACGTGCTAG | 0.0896 z-score
TTAGGACTGCTTCTCCTTTAGTGCTAG | 0.101 z-score
TTAGATTTCAGTCTCGTTTAGTGCTAG | 2.48 z-score
GACGTTCTCCTACTGCTGACGTGCTAG | -0.322 z-score
CAGCCTCTGAGCAGCTCGGCGTGCTAG | -0.527 z-score
ATAGGTCTCCTTATCCTTTAGTGCTAG | 0.0965 z-score
TTAGCTCTCCTTTTCCTTTAGTGCTAG | 0.618 z-score
TTAGGTCTCGGGACTGGGTTAGTGCTA | -0.244 z-score
GACGGTTTCGACTTCCGGGACGTGCTA | 5.78 z-score
TTAGGTCTCCTTCTACTTTAGTGCTAG | 0.0411 z-score
TCACTGATCCATTTTGGACTGTGCTAG | -0.025 z-score

Excerpt of the above (series 1):
Sequence | E-score
CATGGTTC | 0.322
CATGGTGA | 0.346
ACATGGTC | 0.397
ACCCGCGT | 0.256
GCGTGCAA | 0.395
CCCGTCCC | 0.283
ACCGCGCA | 0.254
CCACGGCA | 0.251
ACATGGCA | 0.403
ACCTCATG | 0.459
